Results gathered from unrelated publications.
Each numbered part is a random draw from the data of one study; scales do not carry over between parts. Substitutions count along the parent as printed.

Block 1
Target: Histone acetyltransferase KAT6A, both winged helices, GST fusion (KAT6A, Homo sapiens, UniProt Q92794, residues 1-181)
Method: protein binding microarray
Molecule type: double-stranded DNA, one strand shown
Matrix: in vitro
Tested at: not given
Setting: 8-mer, flanks averaged, mean of 2 arrays, mostly near background
Relative to: not given
Reading: higher = stronger binding
Construct (chain): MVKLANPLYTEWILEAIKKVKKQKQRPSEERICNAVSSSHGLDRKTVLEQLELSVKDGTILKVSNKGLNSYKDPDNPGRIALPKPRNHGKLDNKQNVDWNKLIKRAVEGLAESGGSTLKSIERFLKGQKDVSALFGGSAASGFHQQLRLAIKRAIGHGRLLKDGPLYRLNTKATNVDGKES
| Sequence | E-score |
| --- | --- |
| AGCCGTAG | 0.138 |
| AACCTGAT | -0.165 |
| GGGCCTTA | 0.0318 |
| ATAATGAC | 0.064 |
| AAAGCGCG | 0.349 |
| ACAAGCTG | -0.183 |
| ACAGTACC | -0.0478 |
| CTTTCCTA | -0.111 |
| AGTGTTAT | -0.137 |
| GACTTGCA | -0.0588 |
| AGGGTAAC | -0.078 |
| TCCTGCCA | -0.164 |
| CCACCCTC | -0.194 |
| AGAAAGAG | -0.176 |
| TCCAAGCA | -0.0631 |
| ATTCACCC | -0.128 |
| CTAAGGCA | 0.00412 |
| TGAGCTAA | -0.0833 |
| GACTTGAC | -0.242 |
| CAAAGACA | -0.176 |
| AAATGCCG | 0.223 |
| GGCAACAC | -0.00358 |

Block 2
Target: ABI1, truncated, D143A, DHFR fusion (Arabidopsis thaliana)
Method: DHFR PCA, deep sequencing
Matrix: yeast
Setting: methotrexate growth selection, single substitutions
With: (+)-ABA 1.4 µM
Relative to: wild-type fitted maximum
Reading: higher = stronger binding
Starting sequence: PYL1, truncated, DHFR fusion (Arabidopsis thaliana); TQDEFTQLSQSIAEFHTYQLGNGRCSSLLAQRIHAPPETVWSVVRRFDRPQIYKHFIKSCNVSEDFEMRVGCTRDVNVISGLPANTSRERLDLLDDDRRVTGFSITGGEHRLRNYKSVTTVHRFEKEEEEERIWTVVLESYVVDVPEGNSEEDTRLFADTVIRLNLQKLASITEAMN
| Change | relative binding score [%] |
| --- | --- |
| T106G | -3.53 |
| E127K | 74.2 |
| R155T | 40.7 |
| K126E | 68.8 |
| Y18H | 63.1 |
| V40P | 2.67 |
| V161Y | 5.96 |
| H55S | 73.8 |
| V136P | 4.8 |
| Q2Y | 64 |
| Y115V | -4.39 |
| S140D | 4.81 |
| K116I | -8.3 |
| A175F | 6.23 |
| T160Y | 32.1 |
| L8A | 13.7 |
| N61A | 62.9 |
| H122M | 1.1 |
| A170K | 66.4 |
| R155Q | 21 |
| R32C | 42.5 |
| V143P | -4.59 |
| R24Y | 2.98 |
| R46M | 16.1 |
| E152L | 17 |

Block 3
Target: JUN, bZIP domain (human)
Method: DHFR protein complementation
Matrix: yeast
Setting: single substitutions, most at no-binding floor
Relative to: wild-type JUN-FOS pair
Reading: higher = stronger binding
Starting sequence: JUN, bZIP domain (human); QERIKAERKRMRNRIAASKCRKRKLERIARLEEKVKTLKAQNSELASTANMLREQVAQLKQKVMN; partner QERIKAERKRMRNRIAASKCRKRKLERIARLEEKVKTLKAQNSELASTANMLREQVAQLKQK
| Change | binding fitness |
| --- | --- |
| R30A | 0.00879 natural log |
| N42V | -1.18 natural log |
| T48Q | -0.145 natural log |
| S47Q | -0.0828 natural log |
| S47D | -0.0658 natural log |
| S43F | -0.277 natural log |
| E33S | -0.368 natural log |
| Q55N | -1.1 natural log |
| E32L | -0.376 natural log |
| N42S | -1.06 natural log |
| A57Q | -0.291 natural log |
| A49W | -1.15 natural log |
| A57V | -0.308 natural log |
| K39T | -0.0088 natural log |
| T48Y | -0.394 natural log |
| E44M | -0.217 natural log |
| L31K | -1.19 natural log |
| I28L | -0.437 natural log |
| A46C | -0.44 natural log |
| M51D | -0.0816 natural log |
| S47I | -0.201 natural log |
| T37M | 0.279 natural log |
| R30H | -0.167 natural log |
| Q55S | -0.893 natural log |
| R53S | -0.596 natural log |

Block 4
Target: CCNB1, cyclin fold, Cln2 fusion (human)
Method: yeast growth competition, sequencing
Matrix: yeast
Setting: weak parent motif
Relative to: not given
Reading: higher = stronger binding
Starting sequence: NPAT docking peptide (human); PCHRRVLCFDSTT
| Change | normalised enrichment score |
| --- | --- |
| PCHRKVLCFDSTT [R5K] | 0.347 |
| PCHRRVLCFDATT [S11A] | 0.178 |
| PCHRRVLCADSTT [F9A] | 0.23 |
| PCHRAVACFDSTT [R5A L7A] | 0.436 |
| PCHRRALCFDSTT [V6A] | 0.728 |
| PCHRRVLCFDSAT [T12A] | 0.565 |
| PCHRAVLCFDSTT [R5A] | 0.125 |
| PCHRKVLCLDSTT [R5K F9L] | 0.46 |
| PCARRVLCFDSTT [H3A] | 0.521 |
| PCHRRVLCFDSTA [T13A] | -0.0323 |

Block 5
Target: Prothrombin, mature alpha-thrombin (F2, Homo sapiens, UniProt P00734)
Method: aptamer microarray, sandwich
Molecule type: DNA with 2'F-ANA
Matrix: in vitro
Tested at: 200 nM
Setting: whole 15-mer aptamer, many near background
With: Cy3 exosite-II aptamer, 400 nM
Reading: higher = stronger binding
Sequence: GGTTGGTGTGGTTGG
| Modification | mean fluorescence intensity [a.u.] |
| --- | --- |
| 2'F-ANA at 2 3 4 5 8 9 10 13 15 | 50.6 |
| 2'F-ANA at 4 6 8 9 10 12 13 14 | 69.5 |
| 2'F-ANA at 1 2 3 5 10 11 12 13 | 58.3 |
| 2'F-ANA at 1 2 3 7 8 11 12 13 15 | 321 |
| 2'F-ANA at 1 5 6 7 8 9 10 12 13 | 50.4 |
| 2'F-ANA at 3 5 7 11 12 13 | 199 |
| 2'F-ANA at 1 2 4 5 11 12 14 15 | 43.6 |
| 2'F-ANA at 1 2 4 5 7 9 10 11 | 47 |
| 2'F-ANA at 1 2 3 4 9 11 | 124 |
| 2'F-ANA at 2 3 4 5 6 7 9 10 12 14 | 49 |
| 2'F-ANA at 2 3 4 6 8 12 13 15 | 599 |
| 2'F-ANA at 2 4 6 7 8 9 10 12 13 15 | 82.8 |
| 2'F-ANA at 1 2 3 4 5 6 8 9 10 13 15 | 57.8 |
| 2'F-ANA at 2 6 10 11 12 14 | 83.1 |
| 2'F-ANA at 3 5 6 8 9 12 13 14 15 | 61.8 |
| 2'F-ANA at 2 3 4 5 8 11 13 | 69.9 |
| 2'F-ANA at 1 2 3 6 7 10 12 | 86.4 |
| 2'F-ANA at 1 3 6 9 11 | 223 |

Block 6
Target: Sal-like protein 4, full length isoform B (SALL4, Homo sapiens, UniProt Q9UJQ4-2, residues 1-616)
Method: universal PBM
Molecule type: double-stranded DNA, one strand shown
Matrix: in vitro
Tested at: not given
Setting: 8-mer, flanks averaged, mean of replicates
Reading: higher = stronger binding
Target sequence (chain): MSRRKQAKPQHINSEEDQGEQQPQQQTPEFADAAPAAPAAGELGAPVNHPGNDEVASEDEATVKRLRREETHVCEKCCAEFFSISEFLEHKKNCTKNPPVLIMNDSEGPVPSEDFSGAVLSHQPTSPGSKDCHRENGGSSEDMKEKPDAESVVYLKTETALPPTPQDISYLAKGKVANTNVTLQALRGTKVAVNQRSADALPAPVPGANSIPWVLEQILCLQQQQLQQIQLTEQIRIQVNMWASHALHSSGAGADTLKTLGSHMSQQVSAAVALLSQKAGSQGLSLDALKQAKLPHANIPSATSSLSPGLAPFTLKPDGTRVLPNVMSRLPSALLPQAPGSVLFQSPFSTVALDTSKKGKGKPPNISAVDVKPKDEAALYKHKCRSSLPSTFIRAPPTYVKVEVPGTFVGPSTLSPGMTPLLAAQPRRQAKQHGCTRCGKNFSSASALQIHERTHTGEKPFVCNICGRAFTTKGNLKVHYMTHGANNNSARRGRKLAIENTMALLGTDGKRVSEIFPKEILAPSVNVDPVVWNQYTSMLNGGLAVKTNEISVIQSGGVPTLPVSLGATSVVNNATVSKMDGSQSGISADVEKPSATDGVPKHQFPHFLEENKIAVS
| Sequence | E-score |
| --- | --- |
| AATCCGAG | 0.0419 |
| ACGCAAAT | 0.0307 |
| ACGCTGAG | -0.199 |
| ATGGAGAG | 0.0631 |
| AAAGCTCT | -0.201 |
| AAACTGGA | 0.0772 |
| CCTAGAGC | -0.231 |
| ACGTAAAA | 0.269 |
| GACGCGTC | -0.3 |
| GCAAGTGA | -0.0466 |
| GATATTAA | 0.384 |
| CCTGGTAA | -0.0648 |
| AAAGCCTT | -0.164 |
| CTTCCTTC | -0.122 |
| AATATCGA | 0.301 |
| AGCTTCTG | -0.207 |
| CTTCGTGA | -0.146 |
| ATGTTGCG | 0.073 |

A few entries again (block 5):
| Modification | mean fluorescence intensity [a.u.] |
| --- | --- |
| 2'F-ANA at 1 2 4 5 7 9 10 11 | 47 |
| 2'F-ANA at 3 5 6 8 9 12 13 14 15 | 61.8 |
| 2'F-ANA at 1 3 6 9 11 | 223 |
| 2'F-ANA at 1 2 3 7 8 11 12 13 15 | 321 |
| 2'F-ANA at 1 2 3 4 9 11 | 124 |
| 2'F-ANA at 1 2 4 5 11 12 14 15 | 43.6 |
| 2'F-ANA at 4 6 8 9 10 12 13 14 | 69.5 |
| 2'F-ANA at 2 3 4 6 8 12 13 15 | 599 |
| 2'F-ANA at 2 3 4 5 6 7 9 10 12 14 | 49 |
| 2'F-ANA at 1 2 3 6 7 10 12 | 86.4 |
| 2'F-ANA at 2 6 10 11 12 14 | 83.1 |
| 2'F-ANA at 2 3 4 5 8 9 10 13 15 | 50.6 |
| 2'F-ANA at 1 2 3 4 5 6 8 9 10 13 15 | 57.8 |
| 2'F-ANA at 2 4 6 7 8 9 10 12 13 15 | 82.8 |
